Earlier results, collected from citations in different studies.
Compare with care: the assays were run in different laboratories.
Organism: Mycobacterium tuberculosis

SMILES | assay | system | setting | MIC
Cc1cc(C)c2cc(C(=O)NC3CCCCC3)[nH]c2c1 | phenotypic screening | – | – | 0.93 µM
O=C(Cn1cc(CN2C(=O)c3ccccc3C2=O)nn1)Nc1ccc(Br)cc1 | – | – | – | 12.5 µg/mL
Cc1cn2c(C(=O)NCc3ccc(C(F)(F)F)cc3)c(C)nc2s1 | – | – | – | 0.061 µM
C1CN(C2C3CC4CC(C3)CC2C4)CCN(C2C3CC4CC(C3)CC2C4)C1 (centres unmarked) | – | – | concentration not given | 1.56 µM
C#CCN(Cc1ccc2nc(N)nc(N)c2c1)c1ccc(C(=O)N[C@@H](CCC(=O)O)C(=O)O)cc1 | – | H37Rv | – | ~5 µM
O=C(O)c1c(=O)c2cc([N+](=O)[O-])c(N3CCC4(CC3)OCCO4)nc2n2c1sc1ccccc12 | – | multidrug-resistant | – | 0.04 µM
O=C(NCc1cn(Cc2ccc([N+](=O)[O-])cc2)nn1)c1cccnc1 | bacterial growth | – | – | 1.56 µg/mL
Cc1ccc2nc(C)c(C(=O)NCc3ccc(S(C)(=O)=O)cc3)n2c1 | alamar blue fluorescence | H37Rv | – | 0.4 µM
CO[C@H]1[C@@H](O)[C@H](n2ccc(=O)[nH]c2=O)O[C@@H]1[C@@H](O[C@H]1OC(C(=O)N[C@H]2N=C(c3ccccc3)c3ccccc3NC2=O)=C[C@H](O)[C@@H]1O)C(N)=O | growth | H37Rv | – | 2.5 µg/mL
c1ccc(-c2cc(N3CCCCC3)nc3nc(N4CCCCC4)ccc23)cc1 | – | H37Rv | – | 6.25 µg/mL
CC(C)=CCC/C(C)=C/CNCCOC1C2CC3CC(C2)CC1C3 (centres unmarked) | – | H37Rv | – | 0.035 µg/mL

Repeated from above:
SMILES | assay | system | setting | MIC
O=C(O)c1c(=O)c2cc([N+](=O)[O-])c(N3CCC4(CC3)OCCO4)nc2n2c1sc1ccccc12 | – | multidrug-resistant | – | 0.04 µM
